Results from different studies.
Protocols differ between the studies behind these lines. pKd: −log10 of the molar value.
rep main protease: Replicase polyprotein 1ab, main protease (rep, Severe acute respiratory syndrome coronavirus 2, UniProt P0DTD1)

With Nc1cccc(C(=O)NC[C@H](NC(=O)c2cnc3n[nH]nc3c2)c2ccc3ccccc3c2)c1 the inhibition was 12% (rep main protease; enzyme activity, inhibitor; 5 µM, run 2).
Nc1ncnc2c([C@@H]3N[C@H](CO)[C@@H](O)[C@H]3O)c[nH]c12 gave an infected cells of 5.6% (Marburg virus; viral replication, antibody staining; HeLa, Musoke; 12.5 µM, 24 h).
With Cc1nc(C)c(CCC(=O)N2C[C@]34CCC[C@@]3(C2)CN(C(=O)[C@@H]2CCC(=O)NC2)C4)c(=O)[nH]1 the inhibition was 12.8% (rep main protease; enzyme activity, inhibitor; 5 µM).
CC[C@H](C)[C@H](NC(=O)[C@H](CC(C)C)NC(=O)[C@H](Cc1c[nH]c2ccccc12)NC(=O)[C@H](CCC(N)=O)NC(=O)[C@@H](NC(=O)[C@H](Cc1ccccc1)NC(=O)[C@H](C)NC(=O)[C@H](CCCCNC(=O)COCCOCCNC(=O)COCCOCCNC(=O)CC[C@H](NC(=O)CCCCCCCCCCCCCCCCCCC(=O)O)C(=O)O)NC(=O)[C@H](CCC(N)=O)NC(=O)[C@H](C)NC(=O)[C@@H](NC(=O)[C@H](CCCCN)NC(=O)[C@H](CC(=O)O)NC(=O)[C@H](CC(C)C)NC(=O)C(C)(C)NC(=O)[C@@H](NC(=O)[C@H](CO)NC(=O)[C@H](Cc1ccc(O)cc1)NC(=O)[C@H](CC(=O)O)NC(=O)[C@H](CO)NC(=O)[C@@H](NC(=O)[C@H](Cc1ccccc1)NC(=O)[C@@H](NC(=O)CNC(=O)[C@H](CCC(=O)O)NC(=O)C(C)(C)NC(=O)[C@@H](N)Cc1ccc(O)cc1)[C@@H](C)O)[C@@H](C)O)[C@@H](C)CC)[C@@H](C)CC)C(C)C)C(=O)N[C@@H](C)C(=O)NCC(=O)NCC(=O)N1CCC[C@H]1C(=O)N[C@@H](CO)C(=O)N[C@@H](CO)C(=O)NCC(=O)N[C@@H](C)C(=O)N1CCC[C@H]1C(=O)N1CCC[C@H]1C(=O)N1CCC[C@H]1C(=O)N[C@@H](CO)C(N)=O: “adverse events (puncture site bruise)” 0% (healthy subjects, single ascending dose; 0.25 mg).
With Cn1cnc(Cn2c(=O)[nH]/c(=N\c3cc4cn(C)nc4cc3Cl)n(Cc3cc(F)c(F)cc3F)c2=O)n1 the AUC(0-last) was 977 µg·h/mL (human, normal renal function; oral, 375 mg, single dose, geometric mean).
O=C(N[C@@H](CNC(=O)[C@@H]1CCCc2cn[nH]c21)c1ccc2ccccc2c1)c1cccnc1 has an inhibition of 13.6% (rep main protease; enzyme activity, inhibitor; 5 µM, run 1).
O=C(/C=C/c1ccc(O)c(O)c1)OC[C@H]1O[C@@H](OCCc2ccc(O)c(O)c2)[C@H](O)[C@@H](O)[C@@H]1O gave a pKd of 4.96 (Spike glycoprotein (Severe acute respiratory syndrome coronavirus 2, UniProt P0DTC2); binding, BLI).
For CSCC(CC(=O)c1ccc(C)cc1)C(=O)O (centres unmarked), the inhibition was -0.471% (rep main protease; viral replication, Gluc reporter; SARS-CoV-2; 20 µM).

For quick reference, copied from above:
With Cn1cnc(Cn2c(=O)[nH]/c(=N\c3cc4cn(C)nc4cc3Cl)n(Cc3cc(F)c(F)cc3F)c2=O)n1 the AUC(0-last) was 977 µg·h/mL (human, normal renal function; oral, 375 mg, single dose, geometric mean).
